Measurements gathered from unrelated publications.
± marks the error that the study gave.
Epithelial sodium channel subunit beta: Epithelial sodium channel subunit beta (Homo sapiens, UniProt P51168)
HLA class I histocompatibility antigen, A alpha chain: HLA class I histocompatibility antigen, A alpha chain (Homo sapiens, UniProt P04439)
gag-pol K653A reverse transcriptase: Gag-Pol polyprotein, reverse transcriptase (gag-pol, Human immunodeficiency virus type 1 group M subtype B, UniProt P04585, K653A)

CC[C@H](C)[C@H](NC(=O)[C@@H](NC(=O)[C@H](CC(C)C)NC(=O)[C@H](CC(N)=O)NC(=O)[C@H](CC(=O)O)NC(=O)[C@H](CCC(=O)O)NC(=O)[C@@H](NC(=O)[C@@H](N)CCCNC(=N)N)[C@@H](C)CC)C(C)C)C(=O)N[C@H](C(=O)N[C@@H](CCCNC(=N)N)C(=O)O)[C@@H](C)CC
kon (Epithelial sodium channel subunit beta; binding, bio-layer interferometry): 107 M⁻¹ s⁻¹

CCOC(=O)CC(SP(=S)(OC)OC)C(=O)OCC (stereo not shown)
remaining activity (uncharacterized protein (Anopheles coluzzii, UniProt A0A6E8VQK1); enzyme activity, inhibitor; Sf9 cell homogenate; 0.4545 µM, 0.1667 h, added: α-naphthyl acetate substrate; relative to: no inhibitor): 105%

RNCRAPRKK
dissociation half-life (HLA class I histocompatibility antigen, A alpha chain; peptide-MHC complex stability, iTopia off-rate; peptide): 30 min

CC(C)C[C@H](NC(=O)[C@H](Cc1ccccc1)NC(=O)[C@@H]1CCCN1C(=O)[C@H](CCCNC(=N)N)NC(=O)[C@H](CCC(=O)O)NC(=O)[C@@H]1CCCN1C(=O)[C@H](CO)NC(=O)[C@@H](N)CCC(=O)O)C(=O)O
kon (Epithelial sodium channel subunit beta; binding, bio-layer interferometry): 47.5 M⁻¹ s⁻¹

N[C@@H](C[C@]1(C(=O)O)C[C@H]2OC[C@@H](O)[C@@H](O)[C@H]2O1)C(=O)O
affinity increase (Glutamate receptor ionotropic, kainate 3 (Rattus norvegicus, UniProt P42264, F446Y/T520A); [3H]kainate displacement; relative to: wild-type GluK3): 10 fold

Nc1ncnc2c1ncn2[C@H]1C[C@H](O)[C@@H](COP(=O)(O)OP(=O)(O)OP(=O)(O)O)O1
Km (gag-pol K653A reverse transcriptase; substrate; K66A mutant, added: G:A mismatched primer template): 326 ± 164 µM

LARNCRAPR
dissociation half-life (HLA class I histocompatibility antigen, A alpha chain; peptide-MHC complex stability, iTopia off-rate; peptide): 18.6 min

CCN(CC)c1nc(C)cc(OP(=S)(OC)OC)n1
remaining activity (uncharacterized protein (Anopheles coluzzii, UniProt A0A6E8VQK1); enzyme activity, inhibitor; Sf9 cell homogenate; 0.4587 µM, 0.1667 h, added: α-naphthyl acetate substrate; relative to: no inhibitor): 98.4%

[Ni+2]
relative specific activity (uncharacterized protein (Bacteroides thetaiotaomicron, UniProt Q8A183); phosphatase activity, activator, phosphate release; 5 mM, EDTA-treated enzyme, added: substrate 20 mM; relative to: activity with Mg2+): 0.056

NC(=O)c1c(N)sc2c1CCCCC2
lowest effective concentration (Gag-Pol polyprotein, RT with RNA/DNA hybrid (gag-pol, Human immunodeficiency virus 1, UniProt P03366, E1077Q/T1072C); nucleoprotein complex dissociation, electrophoretic mobility shift): 1.6 µM

Cc1cn([C@H]2C=C[C@@H](COP(=O)(O)OP(=O)(O)OP(=O)(O)O)O2)c(=O)[nH]c1=O
fold resistance (Gag-Pol polyprotein, reverse transcriptase (gag-pol, Human immunodeficiency virus type 1 group M subtype B, UniProt P04585, K653N); reverse transcriptase activity, inhibitor; HIV-1; relative to: K66N mutant over wild type): ~2 fold

C[C@@H](O)[C@H](NC(=O)[C@H](Cc1ccccc1)NC(=O)[C@H](Cc1ccccc1)NC(=O)[C@H](CC(=O)O)NC(=O)[C@H](CC(=O)O)NC(=O)[C@H](Cc1c[nH]c2ccccc12)NC(=O)[C@H](CO)NC(=O)[C@@H](N)CCCCN)C(=O)N[C@@H](CCCNC(=N)N)C(=O)O
kon (Epithelial sodium channel subunit beta; binding, bio-layer interferometry): 169 M⁻¹ s⁻¹

ARNCRAPRK
dissociation half-life (HLA class I histocompatibility antigen, A alpha chain; peptide-MHC complex stability, iTopia off-rate; peptide): 24 min

COP(=O)(OC)Oc1ccc([N+](=O)[O-])cc1
Km (Phosphotriesterase-like lactonase (Geobacillus stearothermophilus, UniProt D0VX06)): 270 ± 31 µM

Cc1c(N2CC[C@@H](CN)C2)c(F)cc2c(=O)n(CCN)c(=O)n(C3CC3)c12
concentration giving linear DNA (DNA gyrase (gyrA/gyrB, Escherichia coli, UniProt P0AES4+P0AES6); DNA cleavage, poison): 25 to 50 µM

AKNCRAPRK
dissociation half-life (HLA class I histocompatibility antigen, A alpha chain; peptide-MHC complex stability, iTopia off-rate; peptide): 1080 min

C[C@@H]1Cc2c(Cl)cc(C(=O)N[C@@H](Cc3ccccc3)C(=O)O)c(O)c2C(=O)O1
Km (Solute carrier family 22 member 11 (SLC22A11, Homo sapiens, UniProt Q9NSA0); substrate; CHO cells expressing human OAT4; 5 min, pH 7.4): 10.6 ± 7.6 µM

KNCRAPRKK
peptide binding (HLA class I histocompatibility antigen, A alpha chain; iTopia binding; peptide; 11 µM, 18 h, 21 °C; relative to: positive control): 37.9%

COc1cc2c3cc1Oc1cc(ccc1O)C[C@@H]1c4c(cc(OC)c(O)c4Oc4ccc(cc4)C[C@@H]3N(C)CC2)CC[N+]1(C)C
free receptor reduction (Chrnd/Chrna1/Chrne (Mus musculus, UniProt P02716+P04756+P20782); mouse diaphragm; 0.1 µM, AChE inhibited): 75%

Nc1nc2c(ncn2[C@H]2C[C@H](O)[C@@H](COP(=O)(O)OP(=O)(O)OP(=O)(O)O)O2)c(=O)[nH]1
Km (Gag-Pol polyprotein, reverse transcriptase (gag-pol, Human immunodeficiency virus type 1 group M subtype B, UniProt P04585, K653T); nucleotide misinsertion, steady-state kinetics; K66T mutant RT, added: opposite template T): 15.4 ± 6.69 µM

RASILSGGK
ED50 (HLA class I histocompatibility antigen, A alpha chain; peptide binding, iTopia affinity; peptide): 19.1 µM

Nc1ccn([C@H]2C[C@H](O)[C@@H](COP(=O)(O)OP(=O)(O)OP(=O)(O)O)O2)c(=O)n1
Km (gag-pol K653A reverse transcriptase; nucleotide misinsertion, steady-state kinetics; K66A mutant RT, added: opposite template T): 351 ± 326 µM

CC(C)C[C@@H]1NC(=O)CNC(=O)[C@H](CC(C)C)NC(=O)[C@H](CO)NC(=O)[C@H](CCCCN)NC(=O)[C@@H]2CSSC[C@@H](C(=O)N[C@H](C(N)=O)C(C)C)NC(=O)[C@H](C)NC(=O)[C@@H]3CSSC[C@H](NC(=O)[C@H](Cc4ccccc4)NC(=O)[C@H](Cc4c[nH]cn4)NC(=O)[C@H](CC(C)C)NC(=O)[C@H](CC(N)=O)NC(=O)CCSSC[C@H](NC(=O)[C@H](CCCCN)NC(=O)CNC(=O)[C@H](CC(C)C)NC1=O)C(=O)N[C@@H](C)C(=O)NCC(=O)N[C@@H](CO)C(=O)N[C@@H](Cc1ccccc1)C(=O)N3)C(=O)N[C@@H](CCC(N)=O)C(=O)N[C@@H](CC(C)C)C(=O)N[C@@H](CCCNC(=N)N)C(=O)N2
dissociation rate constant (Envelope glycoprotein gp160 (env, Human immunodeficiency virus type 1 group M subtype B, UniProt P35961); binding, surface plasmon resonance; pH 7.4, 1:1 Langmuir fit): 0.00475 ± 1.3e-05 s⁻¹

Cc1c2oc3c(C)ccc(C(=O)N[C@@H]4C(=O)N[C@H](C(C)C)C(=O)N5CCC[C@H]5C(=O)N(C)CC(=O)N(C)[C@@H](C(C)C)C(=O)O[C@@H]4C)c3nc-2c(C(=O)N[C@@H]2C(=O)N[C@H](C(C)C)C(=O)N3CCC[C@H]3C(=O)N(C)CC(=O)N(C)[C@@H](C(C)C)C(=O)O[C@@H]2C)c(N)c1=O
RdRp activity (Non-structural polyprotein pORF1, RNA-dependent RNA polymerase (Hepatitis E virus genotype 1, UniProt P33424); PicoGreen fluorescence; Hepatitis E virus; 5 µM, added: poly(C)/GTP): no effect

RASVLSGGK
peptide binding (HLA class I histocompatibility antigen, A alpha chain; iTopia binding; peptide; 11 µM, 18 h, 21 °C; relative to: positive control): 96.5%

Repeated from above:
Nc1ccn([C@H]2C[C@H](O)[C@@H](COP(=O)(O)OP(=O)(O)OP(=O)(O)O)O2)c(=O)n1
Km (gag-pol K653A reverse transcriptase; nucleotide misinsertion, steady-state kinetics; K66A mutant RT, added: opposite template T): 351 ± 326 µM

NC(=O)c1c(N)sc2c1CCCCC2
lowest effective concentration (Gag-Pol polyprotein, RT with RNA/DNA hybrid (gag-pol, Human immunodeficiency virus 1, UniProt P03366, E1077Q/T1072C); nucleoprotein complex dissociation, electrophoretic mobility shift): 1.6 µM
